Results of several laboratories.
A part holds a random share of what one study measured.

Set 1 — technique: RNA Bind-n-Seq; form: RNA; medium: in vitro; tested at: 365 nM; baseline: no-protein control; reading: higher = stronger binding; endpoint: RBNS enrichment (R)
Target: RNA binding protein fox-1 homolog 2, RRM domain, GST-SBP tag (RBFOX2, Homo sapiens, UniProt O43251-10, residues 100-194)
Setting: natural RNA segment, single round, ends assumed
Constant ends, left off below: GGGAGUUCUACAGUCCGACGAUC … UGGAAUUCUCGGGUGCCAA
Residues (chain): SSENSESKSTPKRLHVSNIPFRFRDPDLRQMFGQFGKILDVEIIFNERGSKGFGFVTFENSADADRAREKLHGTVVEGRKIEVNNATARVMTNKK
CCGGGCCCAGCCCAGCCCUUCCUGAAGCCAGAAGCGUUGCUGAGUGUGUUCCCUGUAACUGCCCCAUAGUGGGCAGCCCUGGAGGAACAAGGGGCUGGCUGUCCUGGGCU: 0.4
GUGGGGUUAAUAUAGCAUGUUAUCCUGUCUAUCUUUUAAAGAUUUCUGUAUAAGACUGUUGAGCAGUUUUUAAAAUAGUGUAGGAUAAUAUAAAAAGCAGAUAGAUGGCG: 19.9
AGGUAGGCUGAGUAUUGGGAAUCCAAAUUGAAUUUUGAUUCUCCUUGGCAGUGAACUACUUUGAAGAAGUGGUCAAUGGGUUGUUGCUGCCAUGAGCAUGUACAACCUCU: 1.34
GGAAAUAGAACCUAAACACAUGCCCAGAAGUCCUGGUUCAAAAGCUUUACUAUGGAGCCUGCAUAUGAAGCCACCUCUGGCUUCUACAGAAGGAGGCCCUGGCUGCUCCA: 0.236
AUCAGUUCUGCACACCUCCAGGGGUGGAUCCAGCUGUAAGGCCAUACCUAUAUCUUCCAGAUGUCCUCAUCUGCUGCAGGGCUUUGGCCCUGCUCAGGAUAAUGUGCUAU: 0.228
GCUUGUCUCUGACUCGGUUGAGGUCCAUGCUCUGACUUUCUGCACCCUCGUGCUAGGCGAUUCGUGUUACUAUACAAAACCGCAGAAGGAAUUGGGCCACCUGUGGCAUC: 0.323
AGAUUAAAGGCCUGUGAGUACUGCUGAGCUUGGUGUGGCUUGGUGUGGCAGAAGGCCUGGCCUAGGAUCCUAGAUAAGCAGGUGAAAUUUAGGCUUCAGAAUAUAUCCGA: 0.728
CCACUUGUUAGAGGUAGGGCUAUGAGGAAGCAAGGAUGGGAGGUGGGGUUGAGGUUUGGGAAGCAGGCAGCAAGCGUUACCUUUGCAGAAGACUCGUGUCUUGCUGUAGA: 0.914

Set 2 — technique: protein binding microarray; form: double-stranded DNA, one strand shown; medium: in vitro; tested at: not given; baseline: not given; reading: higher = stronger binding; endpoint: E-score
Target: Histone acetyltransferase KAT6A, both winged helices, GST fusion (KAT6A, Homo sapiens, UniProt Q92794, residues 1-181)
Setting: 8-mer, flanks averaged, mean of 2 arrays, mostly near background
Residues (chain): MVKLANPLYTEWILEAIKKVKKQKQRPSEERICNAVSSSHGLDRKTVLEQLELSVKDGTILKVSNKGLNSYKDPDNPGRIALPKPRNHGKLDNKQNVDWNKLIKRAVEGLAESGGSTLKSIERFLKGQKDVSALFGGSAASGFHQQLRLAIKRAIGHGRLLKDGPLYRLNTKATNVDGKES
CGGCCATC: 0.157
CGGGTTAA: 0.27
GTCCAACA: -0.132
GACAAAGC: 0.0595
AGATACAT: -0.0647
CTCACCAC: -0.112
ACACTTCT: -0.181
AGGTATGG: -0.107
ATCGCACG: 0.0808
CATTGTCC: -0.0385
ACCTTTCC: -0.0286
GCTCCTCC: -0.109
GCCAAGGA: -0.131
ACTCGAAG: 0.000385
GCGAATGA: 0.134
CGCAGCGC: 0.316
AGATGGGA: -0.206
GGCAAGTA: -0.0737

Set 3 — technique: aptamer microarray, sandwich; form: DNA with 2'F-ANA; medium: in vitro; tested at: 200 nM; together with: Cy3 exosite-II aptamer, 400 nM; reading: higher = stronger binding; endpoint: mean fluorescence intensity; sequence: GGTTGGTGTGGTTGG
Target: Prothrombin, mature alpha-thrombin (F2, Homo sapiens, UniProt P00734)
Setting: whole 15-mer aptamer, many near background
2'F-ANA at 2 6 7 8 10 12 14: 104 a.u.
2'F-ANA at 2 3 5 6 9 10 13 14: 85.9 a.u.
2'F-ANA at 2 3 4 5 7 8 9 10 12 13: 53.5 a.u.
2'F-ANA at 1 2 7 9 11 12: 295 a.u.
2'F-ANA at 1 6 7 8 9 10 13 14 15: 48.1 a.u.
2'F-ANA at 1 3 4 7 9 12 13 14: 67.4 a.u.
2'F-ANA at 1 2 3 4 5 6 11 12 14: 48.4 a.u.
2'F-ANA at 1 6 8 9 15: 189 a.u.
2'F-ANA at 3 7 10 12 15: 711 a.u.
2'F-ANA at 4 8 9 10 11 12 13: 74.9 a.u.
2'F-ANA at 1 3 5 6 8 13 15: 65.8 a.u.
2'F-ANA at 3 6 13: 768 a.u.
2'F-ANA at 1 2 3 5 6 7 8 11 14 15: 50.6 a.u.
2'F-ANA at 2 3 4 5 6 7 8 10: 83.2 a.u.
2'F-ANA at 2 8 9 10 12 13 14: 94.5 a.u.
2'F-ANA at 3 4 5 6 7 12 13 15: 121 a.u.
2'F-ANA at 1 2 5 6 7 8 11 14: 54 a.u.
2'F-ANA at 4 6 7 10 15: 79.4 a.u.
2'F-ANA at 2 5 8 9 10 11: 55 a.u.
2'F-ANA at 1 2 7 8 9 10 11: 53.7 a.u.

Set 4 — technique: RNA Bind-n-Seq; form: RNA; medium: in vitro; tested at: not given; baseline: input RNA pool; reading: higher = stronger binding; endpoint: bound/input enrichment
Target: RING finger protein unkempt homolog, zinc fingers 1-6, GST-SBP tag (UNK, Homo sapiens, UniProt Q9C0B0, residues 30-357)
Sequence of UniProt Q9C0B0 (30-357, looked up): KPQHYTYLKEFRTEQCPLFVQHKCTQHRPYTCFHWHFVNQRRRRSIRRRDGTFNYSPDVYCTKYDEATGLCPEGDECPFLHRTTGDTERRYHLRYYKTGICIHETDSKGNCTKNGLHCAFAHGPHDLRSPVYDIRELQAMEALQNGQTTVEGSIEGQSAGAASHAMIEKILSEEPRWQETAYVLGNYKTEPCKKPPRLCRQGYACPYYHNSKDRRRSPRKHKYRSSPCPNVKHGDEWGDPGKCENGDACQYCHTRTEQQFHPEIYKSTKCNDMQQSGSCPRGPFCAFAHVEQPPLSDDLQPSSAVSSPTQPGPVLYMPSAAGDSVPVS
Setting: RNA with constant flanks, human and mouse sites, ends assumed
Constant ends, left off below: GGGAGUUCUACAGUCCGACGAUC … CAACAGAGGAUUGAGCAUCA
GGCAUCGCGGGCUGUGGAACUCUAUUAGUAUUGGAUCAAAAUGAAUCUGGACUUCAGAUUUUUAGAAGCUUUGACUGGAAUGACGGCUUGUUUGACGUUACCUGGAGUGAAAACAAUGAG: 10.9 ratio
CAUGUGUGUCUAUGUGUCUCUUGUUUUUCUUGCAUGUGUAUAUGUGUACUGCUUAUACACCUUAGUCUGUGGAGUUCAAAAGAAUCCAUUGUUUAACCUGGAUGGUUGUGAGUCAGUAUG: 0.404 ratio
GCACACACGGGCGCGCACACACACGCGCGUACACACUGGGUCUCCAGGCAGCGGCCGUCGCCGCAUCCCCGGCAGCAGCUCCAGGCAAAGUGACAGAGGACAGUGCUGCUGUGAGUUUGA: 0.208 ratio
UCCUGAAGCUUUGUGUUUGGCUGCACCUGCAUAAGCUGCUACAAAUAGAAUAAAGAAUUUCAUAGCCUGUAUCUAUCAUUUAGAUGCAUGGAAAAAAAUGGGCUUUGCACACAAUGGGUU: 7.1 ratio
UUGGAUGGCCUGUCAUGUAUUCUCAACUUUCUGAAGACCAUGGACUAUGAGACCUCUGAGUCUCGGAUACACACCUCCCUCAUUGGCUGUAUAAAGGCACUAAUGAACAACUCUCAAGGC: 0.205 ratio
GCUUCCCCGUCCACCUCUUCAGCUCACACCCCUUCUCAGAUAGCCUCUCCUCUUCAGGAAGACACUCUCUCUGAUGUUGUUCCUCCCAGAGAGAUGUCCUUAUAUGCCUCACUUGCGUCU: 0.338 ratio
CGACACGCACAGGGAGGUAUGUGGUAUGGGGUGGACAUCAACAAUGAGAACAUCGCCGACAACUUCCAGGCAUUUGUGUGGGAGCCAGCCAUGGUGCGCAUCAACGCUCUGACAGCAGCU: 0.2 ratio
GGGAUUUUGGACCAGGGGGAGGGUGUCCUGAUCAUUUUCGAUGAACCCCCAGUAGAUAAAACUUAUGAAGCUGCUCUGGAAACUAUUCAGAACAUGAGUAAAGUAGUGGACUCCCUCUAC: 11 ratio

A few entries again (set 4):
GCACACACGGGCGCGCACACACACGCGCGUACACACUGGGUCUCCAGGCAGCGGCCGUCGCCGCAUCCCCGGCAGCAGCUCCAGGCAAAGUGACAGAGGACAGUGCUGCUGUGAGUUUGA: 0.208 ratio
GGGAUUUUGGACCAGGGGGAGGGUGUCCUGAUCAUUUUCGAUGAACCCCCAGUAGAUAAAACUUAUGAAGCUGCUCUGGAAACUAUUCAGAACAUGAGUAAAGUAGUGGACUCCCUCUAC: 11 ratio
CGACACGCACAGGGAGGUAUGUGGUAUGGGGUGGACAUCAACAAUGAGAACAUCGCCGACAACUUCCAGGCAUUUGUGUGGGAGCCAGCCAUGGUGCGCAUCAACGCUCUGACAGCAGCU: 0.2 ratio
